Measurements from different studies.
Each line is one published result; not all experiments were run side by side. ± marks the error that the study gave. In brackets after ≈: the same amount, converted by molar mass.
Sequence of UniProt P21917 (whole entry, looked up): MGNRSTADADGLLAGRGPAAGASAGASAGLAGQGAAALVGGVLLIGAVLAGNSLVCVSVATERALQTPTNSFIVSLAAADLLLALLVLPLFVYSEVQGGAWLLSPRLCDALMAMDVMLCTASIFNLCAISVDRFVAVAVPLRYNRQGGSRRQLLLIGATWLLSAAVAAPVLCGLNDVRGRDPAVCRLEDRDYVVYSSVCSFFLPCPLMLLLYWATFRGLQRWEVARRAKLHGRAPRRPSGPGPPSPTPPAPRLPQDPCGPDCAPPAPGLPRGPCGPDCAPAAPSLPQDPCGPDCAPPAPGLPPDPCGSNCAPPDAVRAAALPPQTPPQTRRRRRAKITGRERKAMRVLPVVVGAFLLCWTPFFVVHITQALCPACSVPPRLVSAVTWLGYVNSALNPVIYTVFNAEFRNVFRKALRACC
Sequence of UniProt O75676 (whole entry, looked up): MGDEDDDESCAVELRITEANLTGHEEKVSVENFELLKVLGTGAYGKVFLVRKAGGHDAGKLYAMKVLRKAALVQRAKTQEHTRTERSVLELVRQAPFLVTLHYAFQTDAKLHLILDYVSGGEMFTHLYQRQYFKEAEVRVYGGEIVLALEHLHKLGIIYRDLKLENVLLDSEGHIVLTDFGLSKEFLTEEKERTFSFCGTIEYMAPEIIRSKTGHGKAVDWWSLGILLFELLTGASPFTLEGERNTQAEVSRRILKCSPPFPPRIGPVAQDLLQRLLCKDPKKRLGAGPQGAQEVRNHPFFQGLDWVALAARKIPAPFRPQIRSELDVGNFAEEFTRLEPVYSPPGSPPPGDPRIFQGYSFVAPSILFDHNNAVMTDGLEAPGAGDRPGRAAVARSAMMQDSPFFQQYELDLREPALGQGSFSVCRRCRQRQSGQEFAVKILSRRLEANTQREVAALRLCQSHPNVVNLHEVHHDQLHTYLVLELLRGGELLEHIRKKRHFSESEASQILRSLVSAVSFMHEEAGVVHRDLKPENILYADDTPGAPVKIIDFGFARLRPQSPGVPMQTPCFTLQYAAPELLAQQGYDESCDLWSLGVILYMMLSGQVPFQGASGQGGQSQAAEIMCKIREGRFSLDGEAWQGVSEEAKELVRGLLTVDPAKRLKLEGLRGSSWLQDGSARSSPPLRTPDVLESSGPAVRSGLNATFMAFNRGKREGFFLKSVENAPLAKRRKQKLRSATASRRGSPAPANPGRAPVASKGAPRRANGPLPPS

For `C=C(NC(=O)c1csc(-c2nc3c(cc2O)-c2nc(cs2)C(=O)NC(C(C)O)C(=O)NC(=C(C)OC)c2nc(cs2)C(=O)NC2c4nc(cs4)C(=O)NC(COC(=O)c4c5c6c(cccc6n4O)COC(=O)C(OC4CC(C)(O)C(N(C)C)C(C)O4)C2OC5)c2nc-3cs2)n1)C(N)=O` (stereo not shown), the MIC50 was 0.0312 µg/mL (≈ 0.0217 µM) (Streptococcus agalactiae; 25 clinical isolates).
The Ki of `Cn1ncc2cc(CN3CCC(F)(F)C(COc4ccc(F)cc4)C3)ccc21` (stereo not shown) is reported as 1 nM (D(4) dopamine receptor (DRD4, Homo sapiens, UniProt P21917); ligand displacement, radioligand; cell membranes).
With `CNS(=O)(=O)Nc1nccc(Cc2c(C)c3ccc(Oc4ncccc4F)cc3oc2=O)c1F` the IC50 was 46.9 nM (LN-229; cell viability; 7 days).
`FC(F)(F)c1cccc(CNc2nc(NC3CCN(Cc4ccccc4)CC3)c3nc[nH]c3n2)c1` — result for “log2 fold change”: -0.197 (Cryptococcus neoformans; RNA-seq, refers to: IPK1 (CNAG_01294) mRNA; 48 µg/mL, 3 h; reference: untreated wild type).
With `Cc1nn(-c2cccc(N)c2)c(=O)c2cnc(Nc3ccc(N4CCNCC4)cc3)nc12` the IC50 was 2980 nM (Ribosomal protein S6 kinase alpha-4 (RPS6KA4, Homo sapiens, UniProt O75676); enzyme activity, inhibitor).
`CC(C)(C)NCC(SS(=O)(=O)O)c1ccccc1` (stereo not shown) — result for “mean male worms recovered”: 7.25 worms per mouse (Schistosoma mansoni; infected Swiss Webster mice; 400 mg/kg single, dosed day 42, perfusion day 56).
For `Nc1ncc(-c2cc(-c3cnn(CC(F)(F)F)c3)ncc2F)nc1C(=O)NC1CNCC(F)C1` (stereo not shown), the remaining binding was 100% (NEK3; KINOMEscan; 1 µM; reference: DMSO control).
`CC1(C)[C@H](NC(=O)/C(=N\OCCN)c2csc(N)n2)C(=O)N1OS(=O)(=O)O` gave an MIC of 0.25 µg/mL (≈ 0.592 µM) (Proteus mirabilis; agar dilution; ATCC 49565, susceptible).
`Cc1[nH]c2ccccc2c1CC(=O)N[C@@H](Cc1ccccc1)C(=O)N(C)c1ccccc1` gave an EC50 of 610 ± 200 nM (HIV-1; viral replication).
`CC(=O)OC[C@H]1O[C@@H](Sc2sc(C(=O)c3ccc(Cl)cc3)c(N)c2-c2nc3ccccc3s2)[C@H](OC(C)=O)[C@@H](OC(C)=O)[C@H]1OC(C)=O`: “viral titre reduction” 10% (hepatitis A virus; plaque reduction; HM 175; non-toxic concentration).
With `CC1=C(Cn2cc(CN3CCC(=O)CC3)nn2)C(=O)c2ccccc2C1=O` the killing was 36.5% (Schistosoma mansoni; adult worms; 25 µM, 24 h).
`CCCCCCCCCC(=O)N[C@@H](Cc1c[nH]c2ccccc12)C(=O)N[C@H](CC(N)=O)C(=O)N[C@@H](CC(=O)O)C(=O)N[C@@H]1C(=O)NCC(=O)N[C@@H](CCCNC(=O)OC2/C=C/CCCCC2)C(=O)N[C@@H](CC(=O)O)C(=O)N[C@H](C)C(=O)N[C@@H](CC(=O)O)C(=O)NCC(=O)N[C@H](CO)C(=O)N[C@@H]([C@H](C)CC(=O)O)C(=O)N[C@@H](CC(=O)c2ccccc2N)C(=O)O[C@@H]1C` (stereo partly shown): “peak heat flow time” 0 h (Staphylococcus aureus; planktonic bacterial growth, isothermal microcalorimetry; MRSA; 2.5 µg/mL, 24 h, 37 °C, together with: TAG hydrogel).
`C=C[C@]1(C)C[C@@H](OC(=O)CSc2ccc(NC(=O)c3ccco3)cc2)[C@]2(C)[C@H](C)CC[C@]3(CCC(=O)[C@H]32)[C@@H](C)[C@@H]1O` gave an Emax of -1.09 log10 CFU/mL (Mycoplasma gallisepticum; sigmoid Emax model, Cmax/MIC; infected chickens).
With `Cc1ccc(N(C)C(=O)[C@H](Cc2ccccc2)NC(=O)Cc2c[nH]c3ccc(O)cc23)cc1` the EC50 was 35 ± 4 nM (HIV-1; viral replication).
For `C#CCN1CCC(N2C(c3ccc(OC)cc3)=Nc3ccc(F)cc3C2c2ccccc2)CC1` (stereo not shown), growth inhibition read “inactive” (Naegleria fowleri; ATCC 30215; concentration not given).
With `OC(Cn1cncn1)(Cn1cc(-[c-]2cccc2)nn1)c1ccc(F)cc1F.[Cl-].[Co+3].c1cc[cH-]c1` (racemic) the inhibition was 2% (Brugia pahangi; motility, Worminator; adult female; 50 µM, 3 d).
`COC1CN([C@H]2CC[C@H]([C@@]3(C)Oc4c(Cl)cc(C(=O)NCc5c(SC)cc(C)[nH]c5=O)c(C)c4O3)CC2)C1`: “log2 fold change” 1.04 (RNA-seq, refers to: IRF6 mouse homolog; mouse, HT-1376 xenograft, whole blood; dose not given; reference: vehicle).
For `C=CC(=O)Nc1cccc(Cn2ncc3cnc(Nc4cnn(CCOC)c4)nc32)c1`, the binding was 92% (human CAMK1B; KINOMEscan; 100 nM; reference: control).
With `COC(=O)C1=CO[C@@H](C)[C@@H]2Cn3ccc4c5ccccc5nc-4c3C[C@H]12` the IC50 was 249 ± 102 nM (Plasmodium falciparum; growth; 3D7; 96 h, together with: 200 µM IPP).
With `c1ccc(CN2CCOCCOCCN(CCCCCCCCCCCCN3CCOCCOCCN(CCCCCCCCCCCCN4CCOCCOCCN(Cc5ccccc5)CCOCCOCC4)CCOCCOCC3)CCOCCOCC2)cc1` the fold enhancement was 4 fold (Klebsiella pneumoniae; ciprofloxacin activity; ATCC BAA-2146; half MIC, together with: ciprofloxacin; reference: ciprofloxacin alone).
For `CC(=O)O[C@@H]1[C@@H](OC(C)=O)[C@H](Sc2sc(C(=O)c3ccc(Br)cc3)c(N)c2-c2nc3ccccc3s2)OC[C@H]1OC(C)=O`, “viral titre reduction” read 20% (hepatitis A virus; plaque reduction; HM 175; non-toxic concentration).
Under “log2 fold change”, `Cc1ncsc1-c1ccc(C(C)NC(=O)C2CC(O)CN2C(=O)C(NC(=O)CCCCCCCCCCN2CCCC(Nc3ncc(Cl)c(Nc4ccccc4S(=O)(=O)C(C)C)n3)C2)C(C)(C)C)cc1` (stereo not shown) is recorded as -1.31 (22Rv1; RNA-seq, refers to: SYNM mRNA; concentration not given; reference: DMSO).
`C=CS(=O)(=O)c1ccccc1` gave a cysticidal efficacy of 100% (Taenia solium; trypan blue uptake; viable cysts in vitro; 50 µg/mL).
`Nc1c(C(=O)c2ccc(Cl)cc2)sc(S)c1-c1nc2ccccc2s1` gave a viral reduction of 0% (hepatitis A virus; plaque reduction; HM 175; non-toxic dose NG, mean over three titres).
Under “log2 fold change”, `CN1CCCNC(=O)c2cccc(c2)C(=O)NCCCN(C)CCCNc2cccc3c2C(=O)c2cccc(c2C3=O)NCCC1` is recorded as -2.08 (SAS; RNA-Seq, refers to: BET1 mRNA; 1 µM, 6 h; reference: untreated cells).

A few entries again:
For `C#CCN1CCC(N2C(c3ccc(OC)cc3)=Nc3ccc(F)cc3C2c2ccccc2)CC1` (stereo not shown), growth inhibition read “inactive” (Naegleria fowleri; ATCC 30215; concentration not given).
With `OC(Cn1cncn1)(Cn1cc(-[c-]2cccc2)nn1)c1ccc(F)cc1F.[Cl-].[Co+3].c1cc[cH-]c1` (racemic) the inhibition was 2% (Brugia pahangi; motility, Worminator; adult female; 50 µM, 3 d).
`COC1CN([C@H]2CC[C@H]([C@@]3(C)Oc4c(Cl)cc(C(=O)NCc5c(SC)cc(C)[nH]c5=O)c(C)c4O3)CC2)C1`: “log2 fold change” 1.04 (RNA-seq, refers to: IRF6 mouse homolog; mouse, HT-1376 xenograft, whole blood; dose not given; reference: vehicle).
